Earlier results, collected from citations in different studies.
Each line is one published result; not all experiments were run side by side. Numbers after ± are the reported error.
Sequence of UniProt Q9P2K8 (whole entry, unmodified, looked up): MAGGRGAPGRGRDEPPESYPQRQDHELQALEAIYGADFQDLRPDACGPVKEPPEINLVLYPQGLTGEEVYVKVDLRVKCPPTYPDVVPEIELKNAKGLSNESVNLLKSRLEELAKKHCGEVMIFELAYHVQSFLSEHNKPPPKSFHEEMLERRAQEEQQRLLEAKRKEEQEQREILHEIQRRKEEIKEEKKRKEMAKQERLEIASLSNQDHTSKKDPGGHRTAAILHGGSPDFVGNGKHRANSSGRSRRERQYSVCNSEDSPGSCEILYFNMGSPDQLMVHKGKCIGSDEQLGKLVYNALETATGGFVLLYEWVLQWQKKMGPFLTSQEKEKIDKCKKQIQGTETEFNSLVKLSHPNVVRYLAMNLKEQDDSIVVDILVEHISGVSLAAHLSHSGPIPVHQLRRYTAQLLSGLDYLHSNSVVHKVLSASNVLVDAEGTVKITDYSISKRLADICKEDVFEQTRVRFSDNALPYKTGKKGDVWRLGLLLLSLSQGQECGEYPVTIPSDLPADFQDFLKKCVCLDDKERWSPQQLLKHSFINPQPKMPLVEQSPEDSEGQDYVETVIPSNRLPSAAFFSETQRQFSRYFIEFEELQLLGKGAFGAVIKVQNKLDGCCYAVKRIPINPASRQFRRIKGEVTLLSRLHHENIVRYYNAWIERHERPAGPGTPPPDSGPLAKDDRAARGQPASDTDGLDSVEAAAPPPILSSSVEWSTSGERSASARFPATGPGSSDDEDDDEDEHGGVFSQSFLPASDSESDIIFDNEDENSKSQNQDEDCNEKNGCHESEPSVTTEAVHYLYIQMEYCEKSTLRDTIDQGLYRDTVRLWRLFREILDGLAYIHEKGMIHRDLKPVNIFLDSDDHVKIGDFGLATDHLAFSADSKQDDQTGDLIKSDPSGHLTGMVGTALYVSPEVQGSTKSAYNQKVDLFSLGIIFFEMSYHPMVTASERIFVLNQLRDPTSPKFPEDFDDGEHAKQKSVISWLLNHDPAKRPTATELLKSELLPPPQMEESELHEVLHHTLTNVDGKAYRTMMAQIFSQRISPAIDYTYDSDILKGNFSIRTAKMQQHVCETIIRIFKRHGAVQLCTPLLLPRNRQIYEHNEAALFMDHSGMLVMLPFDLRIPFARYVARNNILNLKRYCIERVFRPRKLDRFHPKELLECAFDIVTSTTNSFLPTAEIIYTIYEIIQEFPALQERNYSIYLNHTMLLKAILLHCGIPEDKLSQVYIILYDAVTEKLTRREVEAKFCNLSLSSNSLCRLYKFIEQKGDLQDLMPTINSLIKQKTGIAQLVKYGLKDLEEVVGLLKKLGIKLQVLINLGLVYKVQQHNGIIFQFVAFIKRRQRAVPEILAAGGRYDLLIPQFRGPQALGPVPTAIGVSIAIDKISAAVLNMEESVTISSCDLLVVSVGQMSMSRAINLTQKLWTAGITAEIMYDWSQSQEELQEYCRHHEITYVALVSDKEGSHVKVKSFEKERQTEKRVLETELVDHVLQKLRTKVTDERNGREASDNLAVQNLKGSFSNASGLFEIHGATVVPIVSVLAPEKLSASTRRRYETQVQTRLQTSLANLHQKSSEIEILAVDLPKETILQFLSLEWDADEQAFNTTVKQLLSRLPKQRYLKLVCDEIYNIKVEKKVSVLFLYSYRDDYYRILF

SMILES = CC(C)(O)c1cn(-c2ccc(-c3cc(F)c(CO)c(S(C)(=O)=O)c3)cc2F)c(C(C)(C)c2c(Cl)cccc2Cl)n1; target or system = ABCA1; endpoint = EC50; value = 0.0006 µM
SMILES = COc1ccccc1Oc1cccc(CN2CCC(NC(=O)C3CC(=O)Nc4ccccc43)CC2)c1 (stereo not shown); target or system = human CCR8 S262A mutant (TM6); test = IP accumulation, agonist; endpoint = EC50; value = 0.093 µM
SMILES = CNC(C)C1CCC(N)C(OC2C(N)CC(N)C(OC3OCC(C)(O)C(NC)C3O)C2O)O1 (stereo not shown); target or system = Pseudomonas aeruginosa; system = clinical isolate RKI-No_82/10; endpoint = MIC; value = > 8 µg/mL
SMILES = CNC(=O)c1c(C)oc2cc(Oc3ncnc4cc(OC)c(OC)cc34)ccc12; target or system = VEGFR-2; test = sustained VEGFR-2 phosphorylation inhibition; system = human, translated from mouse; setting = oral, 2.5 mg/kg single dose in mouse; endpoint = target plasma concentration; value = > 176 ng/mL
SMILES = COc1ccccc1Oc1cccc(CN2CCC(NC(=O)C(CCN3CCCC3)c3ccccc3)CC2)c1 (stereo not shown); target or system = human CCR8 Y113A mutant (TM3); test = IP accumulation, agonist; endpoint = EC50; value = > 10 µM
SMILES = O=S(=O)(O)O; target or system = band 3 anion exchanger, human; test = anion transport; system = human red blood cells; setting = pHo 5.5 and 9.0; endpoint = half-saturation constant; value = 4 to 5 mM
SMILES = C[S+]([O-])c1ccc(-c2nc(-c3ccc(F)cc3)c(-c3ccncc3)[nH]2)cc1 (stereo not shown); target or system = CSNK1E; test = kinase activity, inhibitor; setting = 0.5 µM; endpoint = inhibition; value = 60%
SMILES = Cc1cn([C@H]2C[C@H](O)[C@@H](CO)O2)c(=O)nc1N; target or system = cytidine deaminase (human); test = substrate; setting = concentration not given, 37 °C; endpoint = Vmax; value = 40.8 U/mg
SMILES = NC(=O)c1ccc[n+]([C@@H]2O[C@H](COP(=O)([O-])OP(=O)(O)OC[C@H]3O[C@@H](n4cnc5c(N)ncnc54)[C@H](O)[C@@H]3O)[C@@H](O)[C@H]2O)c1; target or system = ADH1 H48S Saccharomyces cerevisiae; test = enzyme activity, substrate; setting = pH 7.3, 30 °C; endpoint = Km; value = 140 µM
SMILES = C=CCCC(=O)O; target or system = histone deacetylase; test = enzyme activity, inhibitor; system = mouse embryonic stem cells; setting = unbound medium concentration; endpoint = EC10; value = 85 µM
SMILES = COc1ccccc1Oc1cccc(CN2CCC3(CC2)C(=O)NCN3CCc2ccccc2)c1; target or system = human CCR8 S110H mutant (TM3); test = IP accumulation, agonist; endpoint = EC50; value = > 10 µM
SMILES = CCCCCC(CCC)C(=O)O (stereo not shown); target or system = HDAC; test = enzyme activity, inhibitor; setting = day 10, unbound medium concentration; endpoint = EC10; value = 13 µM
SMILES = CNc1ccc(-c2nc3ccc(O)cc3s2)cc1; target or system = amyloid fibrils; scale = relative to: over thioflavin T; endpoint = affinity; value = ~300 fold
SMILES = CCCCC(CC)C(=O)O (stereo not shown); target or system = HDAC; test = enzyme activity, inhibitor; setting = day 4, unbound medium concentration; endpoint = EC10; value = 252 µM
SMILES = O=C(O)[C@H]1OC(O)[C@H](O)[C@@H](O)[C@@H]1O (mixture of isomers); target or system = anion exchanger, human; test = substrate; system = neutrophils; endpoint = Km; value = > 95000 µM
SMILES = CCN1CCN(c2cc(N3CCN(CC)CC3)nc(NCCNc3ccnc4cc(Cl)ccc34)n2)CC1; target or system = NR4A1 (Nur77); test = cellular; setting = concentration not given; endpoint = activity; value = inactive
SMILES = Cc1cn([C@@H]2O[C@H](CO)[C@@H](O)[C@H]2O)c(=O)nc1N; target or system = cytidine deaminase (human); test = substrate; setting = concentration not given, 37 °C; endpoint = Vmax; value = 35 U/mg
SMILES = COc1ccccc1Oc1cccc(CN2CCC(O)(c3ccccc3C(=O)O)CC2)c1; target or system = human CCR8 W194A mutant (TM5); test = IP accumulation, agonist; endpoint = EC50; value = 0.02 µM
SMILES = Oc1c2ccccc2c2c3c(cccc13)N=N2; target or system = CSNK1E; test = kinase activity, inhibitor; setting = 0.5 µM; endpoint = inhibition; value = 75%
SMILES = O=C(Nc1nc2ccccc2[nH]1)c1ccccc1; target or system = Rab-9A; setting = PubChem AID 485297; endpoint = activity; value = 1.6 µM
SMILES = COc1ccc(NC(=O)[C@@H]2C[C@H](C)CC[C@H]2C(C)C)cc1; target or system = TRPM8 human; endpoint = EC50; value = 0.192 µM
SMILES = COc1cccc(-c2cc(=O)c3ccccc3o2)c1N; target or system = CSNK1D; test = kinase activity, inhibitor; setting = 0.5 µM; endpoint = inhibition; value = 1%
SMILES = O=C(c1cc(-c2cc3c(cc2C(=O)N2Cc4ccccc4C[C@H]2CN2CCOCC2)OCO3)n2c1CCCC2)N(c1ccccc1)c1ccc(O)cc1; target or system = BCL-2 G101V; scale = relative to: G101V over wild type; endpoint = EC50 fold change; value = 8.4
SMILES = CN1CCN(c2ccc3nc(-c4c(N)c5c(F)cccc5[nH]c4=O)[nH]c3c2)CC1; target or system = c-KIT; test = inhibitor; endpoint = IC50; value = 0.002 µM
SMILES = CCCC(CCC)C(=O)O; target or system = HDAC; test = enzyme activity, inhibitor; setting = day 4, unbound medium concentration; endpoint = EC10; value = 34 µM
SMILES = CC1(C)S[C@@H]2[C@H](NC(=O)[C@H](N)c3ccccc3)C(=O)N2[C@H]1C(=O)O; target or system = Pseudomonas aeruginosa; system = clinical isolate RKI-No_81/10; endpoint = MIC; value = > 16 µg/mL
SMILES = Oc1cc2c(cc1CN1CCN(c3cccc(Cl)c3)CC1)oc1ccccc12; target or system = NR4A1 (Nur77); test = agonist, cell-based; endpoint = EC50; value = 1.4 ± 0.6 µM
SMILES = CCNS(=O)(=O)c1ccc(OC)cc1C1(O)CCN(Cc2cccc(Oc3ccccc3OC)c2)CC1; target or system = human CCR8 W194A mutant (TM5); test = IP accumulation, agonist; endpoint = EC50; value = 0.007 µM
SMILES = Cc1ncsc1-c1ccc([C@H](C)NC(=O)[C@@H]2C[C@@H](O)CN2C(=O)[C@@H](NC(=O)CCCCCCCCCCNC[C@@H](C(=O)N2CCN(c3ncnc4c3[C@H](C)C[C@H]4O)CC2)c2ccc(Cl)cc2)C(C)(C)C)cc1; target or system = Akt; test = inhibitor; setting = concentration not given; endpoint = suppression duration after washout; value = 3 days
SMILES = CC(C)(C)n1nc(Cc2cccc3ccccc23)c2c(N)ncnc21; target or system = CSNK1E; test = kinase activity, inhibitor; setting = 0.5 µM; endpoint = inhibition; value = 98%
SMILES = CCCC(C)C(=O)O (stereo not shown); target or system = HDAC; test = enzyme activity, inhibitor; setting = day 10, unbound medium concentration; endpoint = EC10; value = 1440 µM
SMILES = COc1ccc2nc3cc(Cl)ccc3c(Nc3ccc(C(=O)O)cc3)c2c1; target or system = Plasmodium falciparum; test = whole cell extended time; system = 3D7; setting = 72 h; endpoint = IC50; value = 0.3 µM
SMILES = Nc1nc(Nc2ccc(S(N)(=O)=O)cc2)n(C(=S)Nc2c(F)cccc2F)n1; target or system = CSNK1G1; test = kinase activity, inhibitor; setting = 0.5 µM; endpoint = inhibition; value = 83%
SMILES = CCCCC(C)C(=O)O (stereo not shown); target or system = histone deacetylase; test = enzyme activity, inhibitor; system = mouse embryonic stem cells; setting = unbound medium concentration; endpoint = EC10; value = 2050 µM
SMILES = Nc1cc(C(F)(F)F)c(-c2nc(N3CCOCC3)nc(N3CCOCC3)n2)cn1; target or system = eIF-2-alpha kinase GCN2 (EIF2AK4, Homo sapiens, UniProt Q9P2K8, S808G); test = enzyme activity; setting = 10 µM; scale = relative to: untreated; endpoint = remaining activity; value = 100%
SMILES = CCC(CC)C(=O)O; target or system = HDAC; test = enzyme activity, inhibitor; setting = day 10, unbound medium concentration; endpoint = EC10; value = 2060 µM
SMILES = CC(C)[C@H](CO)Nc1nc(Nc2cc(N)cc(Cl)c2)c2ncn(C(C)C)c2n1; target or system = CSNK1E; test = kinase activity, inhibitor; setting = 0.5 µM; endpoint = inhibition; value = 17%
SMILES = CCOCC1(COCC)CCC(c2n[nH]cc2CN(C)CCNC)CC1; target or system = PRMT8; endpoint = IC50; value = 0.0039 µM
SMILES = CO[C@H]1/C=C/O[C@@]2(C)Oc3c(C)c(O)c4c(O)c(c(/C=N/N5CCN(C)CC5)c(O)c4c3C2=O)NC(=O)/C(C)=C\C=C\[C@H](C)[C@H](O)[C@@H](C)[C@@H](O)[C@@H](C)[C@H](OC(C)=O)[C@@H]1C; target or system = P-glycoprotein; setting = optimised model value; endpoint = kcat; value = 0.0102 s⁻¹
SMILES = Cc1cc(NC(=O)c2cccc(NC(=O)/C=C/CN(C)C)c2)ccc1Nc1nccc(-c2cccnc2)n1; target or system = PDGFR; setting = 1 µM; scale = relative to: control; endpoint = remaining activity; value = 5%
SMILES = O=C1NC(=O)c2c1c1c3ccccc3[nH]c1n1cncc21; target or system = CSNK1D; test = kinase activity, inhibitor; setting = 0.5 µM; endpoint = inhibition; value = 83%
SMILES = C[C@H]1COCCN1c1nc(-c2cnc(N)cc2C(F)F)nc(N2CCOCC2)n1; target or system = CCRF-CEM; endpoint = GI50; value = 0.16 µM
SMILES = CC(C)n1cnc2c(Nc3cccc(Cl)c3)nc(NCCO)nc21; target or system = CSNK1E; test = kinase activity, inhibitor; setting = 0.5 µM; endpoint = inhibition; value = 65%
SMILES = CC(C)(O/N=C(\C(=O)N[C@@H]1C(=O)N2C(C(=O)[O-])=C(C[N+]3(CCNC(=O)c4ccc(O)c(O)c4Cl)CCCC3)CS[C@H]12)c1csc(N)n1)C(=O)O; target or system = KPC-31; test = hydrolysis by enzyme, substrate; endpoint = kcat; value = 0.008 s⁻¹
SMILES = CN(C)c1ccc(C=CC(=O)NC(=O)c2ccccc2O)cc1; target or system = Plasmodium falciparum; test = whole cell extended time; system = 3D7; setting = 72 h; endpoint = IC50; value = 0.23 µM
SMILES = [Zn]; target or system = glycine receptor; test = biphasic modulator; endpoint = potentiating concentration; value = < 10 µM
